Assay results of several laboratories.
Each line is one published result; not all experiments were run side by side. ± gives the spread as reported.
Voltage-gated sodium channel: Voltage-gated sodium channel (Musca domestica, UniProt Q25439)
AR: Androgen receptor (AR, Homo sapiens, UniProt P10275)
GABA-A receptor; alpha-1/beta-2/gamma-2: GABA-A receptor; alpha-1/beta-2/gamma-2 (Rattus norvegicus, UniProt P18508+P62813+P63138)
Sequence of UniProt P18508 (whole entry, looked up): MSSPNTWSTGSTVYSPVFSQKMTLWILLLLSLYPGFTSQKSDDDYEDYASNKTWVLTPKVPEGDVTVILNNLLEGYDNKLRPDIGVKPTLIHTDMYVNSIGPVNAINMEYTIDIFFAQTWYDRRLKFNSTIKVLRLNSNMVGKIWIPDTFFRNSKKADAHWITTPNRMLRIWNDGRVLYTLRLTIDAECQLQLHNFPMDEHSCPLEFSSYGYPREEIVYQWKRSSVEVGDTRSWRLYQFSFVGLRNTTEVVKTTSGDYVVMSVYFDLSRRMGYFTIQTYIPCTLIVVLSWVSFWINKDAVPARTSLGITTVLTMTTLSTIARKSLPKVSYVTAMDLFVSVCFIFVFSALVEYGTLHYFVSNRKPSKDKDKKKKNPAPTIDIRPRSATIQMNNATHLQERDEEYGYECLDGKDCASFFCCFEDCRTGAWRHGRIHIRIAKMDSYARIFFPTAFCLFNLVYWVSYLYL
Sequence of UniProt P63138 (whole entry, looked up): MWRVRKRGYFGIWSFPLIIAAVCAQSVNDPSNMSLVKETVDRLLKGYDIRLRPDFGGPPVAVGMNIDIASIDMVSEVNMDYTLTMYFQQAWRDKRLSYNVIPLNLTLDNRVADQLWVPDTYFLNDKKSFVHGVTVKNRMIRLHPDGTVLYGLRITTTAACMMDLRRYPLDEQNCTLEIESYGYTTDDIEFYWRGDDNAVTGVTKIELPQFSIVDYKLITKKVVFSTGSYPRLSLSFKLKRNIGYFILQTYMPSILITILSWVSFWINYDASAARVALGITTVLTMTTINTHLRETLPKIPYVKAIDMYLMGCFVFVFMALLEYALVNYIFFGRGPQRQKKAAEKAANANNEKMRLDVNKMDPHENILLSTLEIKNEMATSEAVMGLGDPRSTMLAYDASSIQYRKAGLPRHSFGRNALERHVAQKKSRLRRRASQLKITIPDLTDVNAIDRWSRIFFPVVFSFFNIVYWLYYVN
Sequence of UniProt P62813 (whole entry, looked up): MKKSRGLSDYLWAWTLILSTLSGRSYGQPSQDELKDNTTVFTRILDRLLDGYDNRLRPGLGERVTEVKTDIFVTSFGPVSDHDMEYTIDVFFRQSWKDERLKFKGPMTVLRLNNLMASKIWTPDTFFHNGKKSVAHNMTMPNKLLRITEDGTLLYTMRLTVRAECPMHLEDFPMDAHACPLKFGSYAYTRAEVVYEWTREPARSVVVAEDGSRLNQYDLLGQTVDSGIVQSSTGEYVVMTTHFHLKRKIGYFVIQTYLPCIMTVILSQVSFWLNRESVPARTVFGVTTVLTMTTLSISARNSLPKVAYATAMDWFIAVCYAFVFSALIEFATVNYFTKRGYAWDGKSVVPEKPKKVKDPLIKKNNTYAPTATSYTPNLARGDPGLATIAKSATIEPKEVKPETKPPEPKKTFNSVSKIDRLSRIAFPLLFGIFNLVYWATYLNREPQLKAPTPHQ
Sequence of UniProt Q9Y271 (whole entry, looked up): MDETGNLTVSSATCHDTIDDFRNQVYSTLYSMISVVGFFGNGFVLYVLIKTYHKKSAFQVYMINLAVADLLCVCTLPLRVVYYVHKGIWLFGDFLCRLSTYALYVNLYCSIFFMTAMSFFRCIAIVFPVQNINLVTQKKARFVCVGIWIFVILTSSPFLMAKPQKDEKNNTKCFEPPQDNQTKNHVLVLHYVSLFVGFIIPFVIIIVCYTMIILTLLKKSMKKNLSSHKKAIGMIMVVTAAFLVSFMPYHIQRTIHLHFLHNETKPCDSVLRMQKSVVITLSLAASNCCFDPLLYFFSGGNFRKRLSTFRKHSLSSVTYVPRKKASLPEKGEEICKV
Sequence of UniProt Q12791 (whole entry, looked up): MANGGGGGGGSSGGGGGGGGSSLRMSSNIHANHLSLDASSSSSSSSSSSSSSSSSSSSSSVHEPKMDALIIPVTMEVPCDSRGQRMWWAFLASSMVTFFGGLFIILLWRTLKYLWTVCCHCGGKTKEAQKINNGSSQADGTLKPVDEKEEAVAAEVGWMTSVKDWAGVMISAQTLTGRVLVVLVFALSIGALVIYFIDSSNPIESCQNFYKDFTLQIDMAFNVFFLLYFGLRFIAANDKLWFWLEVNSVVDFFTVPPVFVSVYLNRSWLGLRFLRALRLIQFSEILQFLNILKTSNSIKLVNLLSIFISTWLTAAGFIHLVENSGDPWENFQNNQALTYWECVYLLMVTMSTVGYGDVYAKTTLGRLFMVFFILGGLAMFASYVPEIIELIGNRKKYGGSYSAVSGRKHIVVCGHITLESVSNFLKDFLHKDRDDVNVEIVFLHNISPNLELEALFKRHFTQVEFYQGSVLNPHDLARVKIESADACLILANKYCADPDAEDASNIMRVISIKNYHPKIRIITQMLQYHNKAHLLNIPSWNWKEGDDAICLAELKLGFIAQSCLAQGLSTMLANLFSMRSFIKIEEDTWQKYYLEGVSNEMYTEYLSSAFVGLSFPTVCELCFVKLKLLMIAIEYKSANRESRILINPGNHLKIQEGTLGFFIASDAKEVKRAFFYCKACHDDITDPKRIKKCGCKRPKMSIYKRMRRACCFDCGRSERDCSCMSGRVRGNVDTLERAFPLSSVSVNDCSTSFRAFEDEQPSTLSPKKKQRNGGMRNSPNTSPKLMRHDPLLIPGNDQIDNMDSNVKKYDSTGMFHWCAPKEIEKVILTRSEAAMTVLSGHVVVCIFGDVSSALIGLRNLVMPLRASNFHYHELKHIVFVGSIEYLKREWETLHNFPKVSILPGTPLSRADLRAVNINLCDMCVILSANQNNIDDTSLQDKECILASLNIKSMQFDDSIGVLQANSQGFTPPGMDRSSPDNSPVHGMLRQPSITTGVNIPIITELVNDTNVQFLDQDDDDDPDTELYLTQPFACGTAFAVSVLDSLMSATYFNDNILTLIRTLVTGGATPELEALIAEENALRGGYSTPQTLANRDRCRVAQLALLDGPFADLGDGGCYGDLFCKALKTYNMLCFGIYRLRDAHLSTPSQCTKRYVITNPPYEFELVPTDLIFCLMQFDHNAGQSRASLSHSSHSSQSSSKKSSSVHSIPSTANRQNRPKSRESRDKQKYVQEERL
Sequence of UniProt P06276 (whole entry, looked up): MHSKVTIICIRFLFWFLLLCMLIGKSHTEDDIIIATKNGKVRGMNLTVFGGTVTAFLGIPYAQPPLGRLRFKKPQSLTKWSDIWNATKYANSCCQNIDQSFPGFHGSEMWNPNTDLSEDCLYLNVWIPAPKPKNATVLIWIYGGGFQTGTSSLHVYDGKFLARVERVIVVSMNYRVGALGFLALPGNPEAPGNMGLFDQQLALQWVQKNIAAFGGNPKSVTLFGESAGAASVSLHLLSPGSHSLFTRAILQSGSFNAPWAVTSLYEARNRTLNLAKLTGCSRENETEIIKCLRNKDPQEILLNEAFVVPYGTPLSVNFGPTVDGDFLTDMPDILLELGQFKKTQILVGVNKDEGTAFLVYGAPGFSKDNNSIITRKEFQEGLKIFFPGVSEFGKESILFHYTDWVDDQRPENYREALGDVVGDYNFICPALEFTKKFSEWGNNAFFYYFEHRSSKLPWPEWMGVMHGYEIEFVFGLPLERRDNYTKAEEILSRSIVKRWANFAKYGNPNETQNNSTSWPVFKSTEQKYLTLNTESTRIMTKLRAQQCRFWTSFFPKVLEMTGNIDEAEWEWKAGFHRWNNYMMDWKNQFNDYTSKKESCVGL
Sequence of UniProt P00519 (whole entry, looked up): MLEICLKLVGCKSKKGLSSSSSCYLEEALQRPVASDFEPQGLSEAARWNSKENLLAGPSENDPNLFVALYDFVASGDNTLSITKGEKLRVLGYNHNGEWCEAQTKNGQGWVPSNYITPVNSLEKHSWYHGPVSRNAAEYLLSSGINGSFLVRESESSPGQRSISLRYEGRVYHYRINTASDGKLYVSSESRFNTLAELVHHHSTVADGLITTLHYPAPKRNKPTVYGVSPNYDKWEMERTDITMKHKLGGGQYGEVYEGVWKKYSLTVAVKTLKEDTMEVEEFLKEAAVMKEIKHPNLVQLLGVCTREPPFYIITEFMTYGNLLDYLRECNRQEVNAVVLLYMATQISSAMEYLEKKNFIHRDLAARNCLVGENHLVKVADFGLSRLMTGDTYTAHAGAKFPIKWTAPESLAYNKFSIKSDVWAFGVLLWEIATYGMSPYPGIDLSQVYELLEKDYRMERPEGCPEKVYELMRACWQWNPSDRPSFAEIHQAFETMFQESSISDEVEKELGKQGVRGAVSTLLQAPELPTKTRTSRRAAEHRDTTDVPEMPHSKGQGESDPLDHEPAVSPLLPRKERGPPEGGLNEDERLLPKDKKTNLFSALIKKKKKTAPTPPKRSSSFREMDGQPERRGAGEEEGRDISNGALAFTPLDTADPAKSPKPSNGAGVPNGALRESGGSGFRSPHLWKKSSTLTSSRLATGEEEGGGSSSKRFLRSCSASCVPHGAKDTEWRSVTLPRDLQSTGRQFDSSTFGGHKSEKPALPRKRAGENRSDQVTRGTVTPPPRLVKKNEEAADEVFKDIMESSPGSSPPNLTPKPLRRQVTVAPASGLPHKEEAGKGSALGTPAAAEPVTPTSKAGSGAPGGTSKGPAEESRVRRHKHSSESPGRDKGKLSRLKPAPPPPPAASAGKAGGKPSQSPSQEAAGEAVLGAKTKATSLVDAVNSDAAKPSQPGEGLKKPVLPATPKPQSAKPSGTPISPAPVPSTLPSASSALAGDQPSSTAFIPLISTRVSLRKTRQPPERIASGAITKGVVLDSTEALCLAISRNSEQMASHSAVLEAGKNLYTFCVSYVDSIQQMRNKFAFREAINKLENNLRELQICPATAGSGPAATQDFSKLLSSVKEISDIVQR

SMILES	tested on	assay	test system	conditions	scale	quantity	result
COc1cc(Nc2ncc(F)c(Nc3ccc4c(n3)NC(=O)C(C)(C)O4)n2)cc(OC)c1OC	CYSLTR1 (Homo sapiens, UniProt Q9Y271)	binding				IC50	> 10000 nM
C=C(C)C1CCC(CO)=CC1c1c(O)cc(CCCCC)cc1O (stereo not drawn)	CatSper channel complex (Homo sapiens, UniProt Q7RTX7+Q86XQ3+Q8NEC5+Q96P56)	intracellular Ca2+ increase, agonist, Fluo-4 fluorimetry	human sperm			EC50	1800 ± 1400 nM
C[C@@H]1NC(=O)N[C@@H]1CCCCCC(=O)N1CCN(C(=O)c2ccc(/C=C/c3n[nH]c4cc(-c5ccc(S(=O)(=O)F)cc5)ccc34)cc2)CC1	ABL1 (Homo sapiens, UniProt P00519)	covalent labeling, streptavidin Western blot	recombinant protein	1 h		EC50	600 nM
CC[C@H](C)[C@H](NC(=O)[C@H](Cc1ccccc1)NC(=O)[C@H](CCC(=O)O)NC(=O)[C@H](CCCNC(=N)N)NC(=O)[C@H](C)NC(=O)[C@H](C)NC(=O)[C@H](CCC(N)=O)NC(=O)[C@H](CCC(=O)O)NC(=O)[C@H](CCC(=O)O)NC(=O)[C@H](CC(C)C)NC(=O)[C@H](Cc1ccc(O)cc1)NC(=O)[C@H](CO)NC(=O)[C@H](CO)NC(=O)[C@@H](NC(=O)[C@H](CC(=O)O)NC(=O)[C@H](CO)NC(=O)[C@@H](NC(=O)[C@H](Cc1ccccc1)NC(=O)[C@@H](NC(=O)CNC(=O)[C@H](CCC(=O)O)NC(=O)[C@H](C)NC(=O)CCc1c[nH]cn1)[C@@H](C)O)[C@@H](C)O)C(C)C)C(=O)N[C@@H](C)C(=O)N[C@@H](Cc1c[nH]c2ccccc12)C(=O)N[C@@H](CC(C)C)C(=O)N[C@H](C(=O)N[C@@H](CCCNC(=N)N)C(=O)NCC(=O)N[C@@H](CCCNC(=N)N)C(=O)N[C@@H](CCCCNC(=O)COCCOCCNC(=O)COCCOCCNC(=O)CC[C@H](NC(=O)CCCCCCCCCCCCCCCCC(=O)O)C(=O)O)C(=O)NCC(=O)NCC(=O)N[C@@H](CO)C(=O)N[C@@H](CCCCNc1c(NCCCCCN(O)C(=O)CCC(=O)NCCCCCN(O)C(=O)CCC(=O)NCCCCCN(O)C(C)=O)c(=O)c1=O)C(=O)O)C(C)C [zirconium-89 labelled]		gamma counting	rat, skin of neck	subcutaneous, 3 nmol/kg, 168 h		tissue uptake	0.1 %ID/g
CC[C@H](C)[C@@H]1NC(=O)[C@@H]2CCCN2C(=O)[C@H](CC(C)C)NC(=O)[C@H](CC(C)C)NC(=O)CNC(=O)[C@@H](NC(=O)[C@@H](NC(=O)[C@H](CC(=O)O)NC(=O)CNC(=O)[C@@H](NC(=O)[C@H](C)NC(=O)CNC(=O)[C@H](CCCCN)NC(=O)[C@H](CC(C)C)NC(=O)[C@H](CC(C)C)NC(=O)[C@H](CCCCN)NC(=O)CNC(=O)[C@@H](NC(=O)[C@@H](N)CC(C)C)C(C)C)C(C)C)C(C)C)CSSC[C@@H](C(=O)O)NC1=O		RNA-seq, measured: Tnfrsf14	mouse, traumatic brain injury model, frontal cortex and hippocampus	dose not given	baseline: TBI alone	log2 fold change	-1.36
COc1cc(C(=O)N2CC[C@@H](O)[C@@H](N)C2)cc2nc(-c3cc4ccccc4n3CC3CC3)n(C)c12	ADRA2C (Homo sapiens, UniProt P18825)	agonist, TR-FRET				EC50	> 31600 nM
CCCCC/C=C\C/C=C\C/C=C\C/C=C\CCCC(=O)Nc1ccc(O)cc1	20S proteasome human	proteasome activity, activator				EC50	32000 nM
COc1cc2c(Oc3ccc4[nH]c(C)cc4c3F)ccnc2cc1OCC1(N)CC1			paediatric recurrent refractory sarcoma	12 mg		grade 3 Leukopenia	0%
CO[C@H]1C[C@@H]2CC[C@@H](C)[C@@](O)(O2)C(=O)C(=O)N2CCCC[C@H]2C(=O)O[C@H]([C@H](C)C[C@@H]2CC[C@@H](OC(=O)NCCOCCOCCOCCOCCOCCOCCOCCOCCC(=O)N3CCc4cc(Cn5nc(-c6ccc7oc(N)nc7c6)c6c(N)ncnc65)ccc4C3)[C@H](OC)C2)C[C@@H](O)[C@H](C)/C=C(\C)[C@@H](O)[C@@H](OC)C(=O)[C@H](C)C[C@H](C)/C=C/C=C/C=C/1C			patients with advanced solid tumours	intravenous, 1.6 mg/3 mg weekly, any grade		incidence of Diarrhea TRAE	20%
CC1(C)C(C=C(Cl)Cl)C1C(=O)OCc1cccc(Oc2ccccc2)c1 (stereo not drawn)	Voltage-gated sodium channel	membrane potential, activator, FLIPR	HEK293			EC50	724 nM
N#C/C=C/c1ccc2c(S(=O)(=O)n3nc(Nc4ccc(C#N)c(Cl)c4)nc3N)cccc2c1	Gag-Pol polyprotein, reverse transcriptase (gag-pol, Human immunodeficiency virus type 1 group M subtype B, UniProt P04585)	enzyme activity, inhibitor		30 min, room temperature		EC50	420 ± 570 nM
C[C@]12C[C@@H](O)[C@H]3[C@@H](CCC4=CC(=O)CC[C@@]43C)[C@@H]1CC[C@@H]2O	AR	cell-based				EC50	21000 nM
NCc1cc(=O)[nH]o1	GABA-A receptor; alpha-1/beta-2/gamma-2	membrane potential, agonist, QP-DHM fluorescence	HEK293 expressing GABAA			EC50	240 nM
Cc1c[nH]c2ccccc12	GPRor10 (Aedes aegypti, UniProt Q177X3)	ion current, agonist, two-electrode voltage clamp	Xenopus oocytes			EC50	160 nM
c1ccc(C2(c3ccccc3)CC2C2=NCCN2)cc1 (stereo not drawn)	Cholinesterase (BCHE, Homo sapiens, UniProt P06276)	inhibitor, fluorometric				IC50	8020 ± 6360 nM
CC1(C)[C@H](C=C(Cl)Cl)[C@H]1C(=O)OCc1c(F)c(F)cc(F)c1F	Voltage-gated sodium channel	membrane potential, activator, FLIPR	HEK293 expressing house fly VGSC			EC50	1770 nM
C[C@H]1CN(c2n[nH]c3nc(N[C@H]4CC[C@H](NS(=O)(=O)CCC(F)(F)F)CC4)ncc23)CCO1	MAPK11 (Homo sapiens, UniProt Q15759)	Kinobeads competition	HEK293, K562, placenta lysate	20 µM, unit not given	baseline: vehicle	remaining binding	0.13
CCCCC/C=C\C/C=C\C/C=C\C/C=C\CCCC(=O)NCCO	KCNMA1 (Homo sapiens, UniProt Q12791)	channel open probability, activator, inside-out patch clamp				EC50	1100 nM
C[C@]12CC[C@H]3[C@@H]([C@H](O)CC4=CC(=O)CC[C@@]43C)[C@@H]1CC[C@@H]2O	AR	cell-based				EC50	86000 nM
CC[C@H](C)[C@H]1O[C@]2(C=C[C@@H]1C)C[C@@H]1C[C@@H](C/C=C(\C)[C@@H](O[C@H]3C[C@H](OC)[C@@H](O[C@H]4C[C@H](OC)[C@@H](O)[C@H](C)O4)[C@H](C)O3)[C@@H](C)/C=C/C=C3\CO[C@@H]4[C@H](O)C(C)=C[C@@H](C(=O)O1)[C@]34O)O2	GABA-A receptor; alpha-1/beta-2/gamma-2	chloride current, agonist, whole-cell patch clamp	HEK293 expressing GABAA	30 s		EC50	13000 nM
c1cc(N2CCNCC2)c2cc[nH]c2c1	CHRM4 (Homo sapiens, UniProt P08173)	ERK1/2 phosphorylation, agonist	CHO cells			EC50	> 20000 nM

A few entries again:
SMILES	tested on	assay	test system	conditions	scale	quantity	result
CC[C@H](C)[C@@H]1NC(=O)[C@@H]2CCCN2C(=O)[C@H](CC(C)C)NC(=O)[C@H](CC(C)C)NC(=O)CNC(=O)[C@@H](NC(=O)[C@@H](NC(=O)[C@H](CC(=O)O)NC(=O)CNC(=O)[C@@H](NC(=O)[C@H](C)NC(=O)CNC(=O)[C@H](CCCCN)NC(=O)[C@H](CC(C)C)NC(=O)[C@H](CC(C)C)NC(=O)[C@H](CCCCN)NC(=O)CNC(=O)[C@@H](NC(=O)[C@@H](N)CC(C)C)C(C)C)C(C)C)C(C)C)CSSC[C@@H](C(=O)O)NC1=O		RNA-seq, measured: Tnfrsf14	mouse, traumatic brain injury model, frontal cortex and hippocampus	dose not given	baseline: TBI alone	log2 fold change	-1.36
